Experimental data collected from several papers.

The MRT(0-t) of `Cc1cc(NCC(=O)C(C)(C)C)c2nc(N3CCOC[C@H]3C)cc(=O)n2c1` is reported as 0.97 h (C57BL/6 mouse, plasma; intraperitoneal, 10 mg/kg, single dose).
`O=C1CCC(N2C(=O)c3ccc(N4CCC(C(=O)N5CCC(CCN6CCC(CNC(=O)c7cccc(-c8noc(C(F)(F)F)n8)c7)(c7nc(-c8ccccc8)cs7)CC6)CC5)CC4)cc3C2=O)C(=O)N1` (stereo not drawn) has an MRT of 2.28 h (CD-1 mouse, plasma; oral, 30 mg/kg).
The MRT of `COc1cc(OCCN2CCOCC2)cnc1-c1nc2cc(OC(F)(F)F)ccc2[nH]1` is reported as 1.51 h (mouse, plasma; intraperitoneal, 100 mg/kg).
For `CCOC(=O)c1nc2cc(Cl)c(Cl)cc2nc1N1CCN(C(=O)Nc2ccc(N3CCNCC3)cc2)CC1`, the MRT(0-inf) was 8.1 h (male mouse, plasma; oral, 10 mg/kg).
For `COc1cnc2cccc(N3CCc4c(cc(Cn5ccnc5)cc4-c4cn(C)nc4C(F)(F)F)C3=O)c2c1`, the MRT(0-inf) was 1 h (male CD-1 mouse, plasma; intraperitoneal, 10 mg/kg).
`O=C(O)c1ccc(/C=C2\SC(=S)N(Cc3cccc(C(F)(F)F)c3)C2=O)cc1` gave an MRT(0-inf) of 2.4 h (C57BL/6 mouse, blood; oral, 10 mg/kg).
With `COc1ccccc1/C=C/CNCC(O)COc1ccc(Nc2ccccc2)cc1` (racemic) the MRT(0-t) was 5.52 h (mouse, plasma; intraperitoneal, 10 mg/kg).
With `Cc1ncsc1-c1ccc(CNC(=O)[C@@H]2C[C@@H](O)CN2C(=O)[C@@H](NC(=O)COCC(C)(COCCOCCOCCNC(=O)C[C@@H]2N=C(c3ccc(Cl)cc3)c3c(sc(C)c3C)-n3c(C)nnc32)COCCOCCOCCNC(=O)C[C@@H]2N=C(c3ccc(Cl)cc3)c3c(sc(C)c3C)-n3c(C)nnc32)C(C)(C)C)cc1` the MRT(0-inf) was 1.92 h (male C57BL/6 mouse, plasma; intravenous, 5 mg/kg, single dose).
With `Cc1cc(NCCOC(C)C)c2nc(N3CCOC[C@H]3C)cc(=O)n2c1` the MRT(0-t) was 1.06 h (C57BL/6 mouse, plasma; intraperitoneal, 10 mg/kg, single dose).
`CCn1cc(-c2cc(Cn3ccnc3)cc3c2CCN([C@H](c2cc(OC)ccn2)C2CC2)C3=O)c(C(F)(F)F)n1` has an MRT(0-inf) of 2 h (male CD-1 mouse, plasma; oral, 50 mg/kg).
The MRT(0-t) of `C[C@@]1(c2nc(-c3ccc(F)c4cn[nH]c34)no2)CCCN(C(=O)c2ccc(F)nc2)C1` is reported as 1.1 h (male C57BL/6 mouse, plasma; intraperitoneal, 20 mg/kg).
The MRT(0-inf) of `C[C@@H](Nc1nc2c(cnn2C(C)(C)C)c(=O)n1Cc1cccc(F)c1)c1ccc(Cl)cc1` is reported as 11.3 h (C57BL/6 mouse, plasma; intravenous, 2.5 mg/kg).

A few entries again:
For `COc1cnc2cccc(N3CCc4c(cc(Cn5ccnc5)cc4-c4cn(C)nc4C(F)(F)F)C3=O)c2c1`, the MRT(0-inf) was 1 h (male CD-1 mouse, plasma; intraperitoneal, 10 mg/kg).
